{"data": "Published values pooled from the literature", "HRS1": "HRS1 1-344 (Arabidopsis thaliana, UniProt Q9FX67)", "HNRNPL full length assumed": "HNRNPL full length assumed (Homo sapiens, UniProt P14866)", "GZF1": "GZF1 250-711 (Homo sapiens, UniProt Q9H116)", "CHES-1-like": "CHES-1-like 700-785 (Drosophila melanogaster, UniProt Q9W3Q5)", "RC3H1": "RC3H1 89-407 (Homo sapiens, UniProt Q5TC82)", "T1": "loqs Loqs-PD, 1-359 (Drosophila melanogaster); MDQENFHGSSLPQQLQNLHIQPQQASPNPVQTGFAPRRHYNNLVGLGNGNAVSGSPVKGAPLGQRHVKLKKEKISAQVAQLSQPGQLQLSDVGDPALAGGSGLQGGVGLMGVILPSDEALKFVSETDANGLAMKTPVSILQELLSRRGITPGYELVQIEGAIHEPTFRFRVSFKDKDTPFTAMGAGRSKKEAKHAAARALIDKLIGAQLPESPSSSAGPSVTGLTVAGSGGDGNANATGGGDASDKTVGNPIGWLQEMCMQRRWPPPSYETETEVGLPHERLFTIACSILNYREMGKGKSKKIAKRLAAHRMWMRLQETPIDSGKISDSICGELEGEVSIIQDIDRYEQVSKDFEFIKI", "P1": "Fgfr1 (Mus musculus); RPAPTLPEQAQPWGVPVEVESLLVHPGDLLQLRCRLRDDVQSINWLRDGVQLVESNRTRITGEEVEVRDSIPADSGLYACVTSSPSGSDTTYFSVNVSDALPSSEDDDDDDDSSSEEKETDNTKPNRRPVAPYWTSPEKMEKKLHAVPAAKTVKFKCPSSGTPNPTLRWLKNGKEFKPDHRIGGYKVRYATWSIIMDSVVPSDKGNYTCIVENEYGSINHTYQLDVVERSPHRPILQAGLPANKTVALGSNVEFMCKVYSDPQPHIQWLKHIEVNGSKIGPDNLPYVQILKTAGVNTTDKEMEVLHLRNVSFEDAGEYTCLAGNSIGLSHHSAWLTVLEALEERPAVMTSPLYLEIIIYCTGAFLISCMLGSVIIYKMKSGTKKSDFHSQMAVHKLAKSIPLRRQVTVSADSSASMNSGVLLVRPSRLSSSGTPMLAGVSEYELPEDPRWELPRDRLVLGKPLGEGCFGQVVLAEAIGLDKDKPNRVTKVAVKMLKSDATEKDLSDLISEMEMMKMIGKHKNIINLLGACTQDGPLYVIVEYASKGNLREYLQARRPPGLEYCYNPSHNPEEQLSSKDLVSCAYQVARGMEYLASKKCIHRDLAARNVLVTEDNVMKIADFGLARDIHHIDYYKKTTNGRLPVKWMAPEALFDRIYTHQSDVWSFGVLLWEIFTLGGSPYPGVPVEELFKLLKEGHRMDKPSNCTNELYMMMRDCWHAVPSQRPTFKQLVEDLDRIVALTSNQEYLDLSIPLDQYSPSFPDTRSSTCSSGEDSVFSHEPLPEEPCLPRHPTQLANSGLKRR", "note": "Each line is one published result; not all experiments were run side by side. Substitutions count along the parent as printed."}
{"Substance": "TTAAGTTTGACCATATCTTG (dsDNA)", "target or system": "OsWRKY53 full length assumed (Oryza sativa, UniProt A7BEY7)", "assay": "EMSA", "test system": "double-stranded DNA, one strand shown", "measurement": "binding", "value": "binds"}
{"Substance": "AAGAAAATTGAGAGAGAGAGAAATTAGCTAGA (dsDNA)", "target or system": "HRS1", "assay": "EMSA", "test system": "double-stranded DNA, one strand shown", "measurement": "binding", "value": "binds"}
{"Substance": "UGAGUGUGUGUGUGUGAGUGUGU (ssRNA)", "target or system": "HNRNPL full length assumed", "assay": "EMSA", "test system": "RNA", "measurement": "binding", "value": "no binding"}
{"Substance": "GUGUUGGUUUGCCAACAU (structured RNA)", "target or system": "HNRNPL full length assumed", "assay": "fluorescence quenching", "test system": "folded RNA", "measurement": "binding", "value": "binds"}
{"Substance": "GATCTCTGCGCATGCGTCTATAGCCTACTG (dsDNA)", "target or system": "GZF1", "assay": "competition", "test system": "double-stranded DNA, one strand shown", "measurement": "binding", "value": "no binding"}
{"Substance": "CAACGCCCTGTCGGTGAGAAACCGTTTGCA (DNA; hairpin)", "target or system": "CDCA7 235-371 (Homo sapiens, UniProt Q9BWT1)", "assay": "EMSA", "test system": "folded DNA", "measurement": "binding", "value": "binds"}
{"Substance": "TTAATGGTTTGCCGTTGTCGCCA (dsDNA)", "target or system": "CHES-1-like", "assay": "competition", "test system": "double-stranded DNA, one strand shown", "setting": "not purified", "measurement": "binding", "value": "no binding"}
{"Substance": "GATCTCTGCGTGCGCGTCTATAGCCTACTG (dsDNA)", "target or system": "GZF1", "assay": "EMSA", "test system": "double-stranded DNA, one strand shown", "setting": "supershift with anti-GST", "measurement": "binding", "value": "binds"}
{"Substance": "TTATAGTTACAGAGAGAGAAAAACAACTTTAT (dsDNA)", "target or system": "HRS1", "assay": "EMSA", "test system": "double-stranded DNA, one strand shown", "measurement": "binding", "value": "binds"}
{"Substance": "GATCTCTGCGTGCGTATCTATAGCCTACTG (dsDNA)", "target or system": "GZF1", "assay": "competition", "test system": "double-stranded DNA, one strand shown", "measurement": "binding", "value": "no binding"}
{"Substance": "GGGUAAUGCCCCUCCCCUCUCACACCUCCGGGAUCAGUGACCGGAGGGCGGUCGGGGAGGGGACACCU (structured RNA (Pyrococcus abyssi); hairpin, internal loop, K-turn)", "target or system": "nop10 full length assumed (Pyrococcus abyssi, UniProt Q9V0E3)", "assay": "EMSA", "test system": "folded RNA", "measurement": "binding", "value": "no binding"}
{"Substance": "CUCCCUUCUGUGAAGGGGA (structured RNA; hairpin, 6 bp stem, UGU loop)", "target or system": "RC3H1", "assay": "crystal structure", "test system": "folded RNA", "measurement": "binding", "value": "binds"}
{"Substance": "TTAATGGTTTGTTGTTGTCGCCA (dsDNA)", "target or system": "CHES-1-like", "assay": "EMSA", "test system": "double-stranded DNA, one strand shown", "setting": "not purified", "measurement": "binding", "value": "binds"}
{"Substance": "GATCTCTGCGTGCGCTTCTATAGCCTACTG (dsDNA)", "target or system": "GZF1", "assay": "competition", "test system": "double-stranded DNA, one strand shown", "measurement": "binding", "value": "binds"}
{"Substance": "RNA 1 AUGUUUUCGC / RNA 2 GCGAAAACGG (dsRNA; duplex of two strands)", "target or system": "RC3H1", "assay": "EMSA", "test system": "double-stranded RNA", "measurement": "binding", "value": "binds"}
{"Substance": "RNA 1 UAAUACUGUCAGGUAAAGAUGUC / RNA 2 CAUCUUUACCUGACAGUAUUAGA (dsRNA)", "target or system": "T1, loqs Loqs-PD, 1-359 (Drosophila melanogaster)", "assay": "fluorescence anisotropy", "test system": "double-stranded RNA", "measurement": "binding", "value": "binds"}
{"Substance": "CTTCCTCCAGATGAGCTCATGGGTTTCTCCACCAAGGAAGTTTTCCGCTGGTTG (dsDNA)", "target or system": "NFAT5 264-544 (Homo sapiens, UniProt O94916)", "assay": "EMSA", "test system": "double-stranded DNA, one strand shown", "measurement": "binding", "value": "binds"}
{"Substance": "ATCAGTCTAGACATACA (dsDNA)", "target or system": "SMAD3 1-145 (Homo sapiens, UniProt P84022)", "assay": "EMSA", "test system": "double-stranded DNA, one strand shown", "measurement": "binding", "value": "binds"}
{"Substance": "AACGUACUUUAAGGCCUAUUGAGGAAACUC (ssDNA; all dC Pp-dC; all dU Nap-dU)", "target or system": "Pcsk9 31-691 (Rattus norvegicus, UniProt P59996)", "assay": "filter binding", "measurement": "Kd", "value": "0.165 nM"}
{"Substance": "P1 L402A V408A Y442F Y745F Y755F", "target or system": "PIK3R2 (Mus musculus)", "assay": "proximity ligation assay", "test system": "embryo sections", "setting": "read off a plot", "how to read": "higher = more proximity", "measurement": "signal", "value": "60 puncta"}
{"Substance": "GGGAACAGCCCAAUCAUCUUAGACGAUAGGGGGCUAUGCGUGAAAACAGAAGUUCACAGCAUAGCUCCUUUUUGUAUGGGCGCUUUACC (structured RNA)", "target or system": "hutP full length assumed V51I (Bacillus subtilis, UniProt P10943)", "assay": "filter binding", "test system": "folded RNA", "setting": "together with: L-His, Mg2+", "measurement": "binding", "value": "no binding"}
{"Substance": "TATTTGGAATGCGCCGCTACGAACCCGGCT (dsDNA)", "target or system": "GZF1", "assay": "competition", "test system": "double-stranded DNA, one strand shown", "measurement": "binding", "value": "no binding"}
{"Substance": "CACGCUCAUGCACACACCCACA (ssRNA)", "target or system": "HNRNPL 193-270 (Homo sapiens, UniProt P14866)", "assay": "EMSA", "test system": "RNA", "measurement": "binding", "value": "no binding"}
{"Substance": "TATTTGGAACATGCCGCTATAAACCCGGCT (dsDNA)", "target or system": "GZF1", "assay": "competition", "test system": "double-stranded DNA, one strand shown", "measurement": "binding", "value": "no binding"}
{"Substance": "TTAATGTTGTTTTGTTTCCGCCA (dsDNA)", "target or system": "CHES-1-like", "assay": "EMSA", "test system": "double-stranded DNA, one strand shown", "setting": "not purified", "measurement": "binding", "value": "binds"}
{"Substance": "TATTTGGAATGCGCCATCATAAACCCGGCT (dsDNA)", "target or system": "GZF1", "assay": "competition", "test system": "double-stranded DNA, one strand shown", "measurement": "binding", "value": "no binding"}
{"Substance": "CTAGTTGAAGGAAGAGAGGGAATGTGTGTTGG (dsDNA)", "target or system": "HRS1", "assay": "EMSA", "test system": "double-stranded DNA, one strand shown", "measurement": "binding", "value": "binds"}
{"note": "Excerpt of the above:"}
{"Substance": "GUGUUGGUUUGCCAACAU (structured RNA)", "target or system": "HNRNPL full length assumed", "assay": "fluorescence quenching", "test system": "folded RNA", "measurement": "binding", "value": "binds"}
{"Substance": "CTAGTTGAAGGAAGAGAGGGAATGTGTGTTGG (dsDNA)", "target or system": "HRS1", "assay": "EMSA", "test system": "double-stranded DNA, one strand shown", "measurement": "binding", "value": "binds"}
{"Substance": "TATTTGGAATGCGCCATCATAAACCCGGCT (dsDNA)", "target or system": "GZF1", "assay": "competition", "test system": "double-stranded DNA, one strand shown", "measurement": "binding", "value": "no binding"}
{"Substance": "RNA 1 AUGUUUUCGC / RNA 2 GCGAAAACGG (dsRNA; duplex of two strands)", "target or system": "RC3H1", "assay": "EMSA", "test system": "double-stranded RNA", "measurement": "binding", "value": "binds"}
